Experimental data from different studies.
Numbered parts are unrelated; each lists some results of a single study. Changes are numbered by the printed parent chain.
Chain of UniProt Q9UQM7 (whole entry, looked up): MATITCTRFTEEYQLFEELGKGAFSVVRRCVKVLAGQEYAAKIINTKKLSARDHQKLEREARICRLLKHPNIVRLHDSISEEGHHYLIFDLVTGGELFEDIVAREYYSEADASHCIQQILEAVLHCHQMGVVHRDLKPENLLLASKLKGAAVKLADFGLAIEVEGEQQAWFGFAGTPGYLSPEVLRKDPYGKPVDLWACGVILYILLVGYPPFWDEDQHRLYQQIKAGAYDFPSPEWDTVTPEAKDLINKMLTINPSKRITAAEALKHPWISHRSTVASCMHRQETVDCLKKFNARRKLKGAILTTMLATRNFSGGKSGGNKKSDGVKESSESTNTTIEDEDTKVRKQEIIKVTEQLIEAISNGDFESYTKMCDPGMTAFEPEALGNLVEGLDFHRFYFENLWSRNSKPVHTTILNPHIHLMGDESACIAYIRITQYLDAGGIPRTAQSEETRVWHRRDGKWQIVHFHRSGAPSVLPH

Sample 1 — target: inorganic phosphate, free oxyanion; technique: microfluidic competitive inhibition; medium: in vitro, cell-free expressed; tested at: not given; direction: lower = stronger binding; endpoint: phosphate dissociation constant
Setting: derived from inhibition constants, unchanged parent 615000 nM
Starting sequence: PafA, mature enzyme, eGFP fusion (Elizabethkingia meningoseptica, UniProt Q9KJX5); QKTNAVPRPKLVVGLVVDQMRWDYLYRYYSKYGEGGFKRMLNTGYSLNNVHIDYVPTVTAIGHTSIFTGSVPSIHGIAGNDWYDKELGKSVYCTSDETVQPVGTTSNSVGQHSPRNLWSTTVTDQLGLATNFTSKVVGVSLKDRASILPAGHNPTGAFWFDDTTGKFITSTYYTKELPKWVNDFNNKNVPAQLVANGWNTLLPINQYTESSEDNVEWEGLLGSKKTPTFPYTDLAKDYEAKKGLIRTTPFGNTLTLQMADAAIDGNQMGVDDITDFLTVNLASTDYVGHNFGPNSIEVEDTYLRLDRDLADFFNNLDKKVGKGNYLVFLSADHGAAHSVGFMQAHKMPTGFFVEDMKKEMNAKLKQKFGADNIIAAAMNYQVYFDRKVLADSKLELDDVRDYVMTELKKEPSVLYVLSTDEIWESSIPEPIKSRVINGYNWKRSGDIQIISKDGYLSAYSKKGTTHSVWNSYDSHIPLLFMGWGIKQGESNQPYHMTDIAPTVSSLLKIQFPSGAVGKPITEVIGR
Substitution = Q111G; result = 607 µM
Substitution = G103A; result = 596 µM
Substitution = L506V; result = 621 µM
Substitution = I204G; result = 542 µM
Substitution = Q267G; result = 575 µM
Substitution = P519G; result = 634 µM
Substitution = Y302G; result = 832 µM
Substitution = K322V; result = 655 µM

Sample 2 — observed: binding; technique: phage display NGS; form: peptide; tested at: concentration not given; relative to: input library; endpoint: enrichment fold change
Target: UDP-N-acetylglucosamine--peptide N-acetylglucosaminyltransferase 110 kDa subunit (OGT, Homo sapiens, UniProt O15294)
Chain of UniProt O15294 (whole entry, looked up): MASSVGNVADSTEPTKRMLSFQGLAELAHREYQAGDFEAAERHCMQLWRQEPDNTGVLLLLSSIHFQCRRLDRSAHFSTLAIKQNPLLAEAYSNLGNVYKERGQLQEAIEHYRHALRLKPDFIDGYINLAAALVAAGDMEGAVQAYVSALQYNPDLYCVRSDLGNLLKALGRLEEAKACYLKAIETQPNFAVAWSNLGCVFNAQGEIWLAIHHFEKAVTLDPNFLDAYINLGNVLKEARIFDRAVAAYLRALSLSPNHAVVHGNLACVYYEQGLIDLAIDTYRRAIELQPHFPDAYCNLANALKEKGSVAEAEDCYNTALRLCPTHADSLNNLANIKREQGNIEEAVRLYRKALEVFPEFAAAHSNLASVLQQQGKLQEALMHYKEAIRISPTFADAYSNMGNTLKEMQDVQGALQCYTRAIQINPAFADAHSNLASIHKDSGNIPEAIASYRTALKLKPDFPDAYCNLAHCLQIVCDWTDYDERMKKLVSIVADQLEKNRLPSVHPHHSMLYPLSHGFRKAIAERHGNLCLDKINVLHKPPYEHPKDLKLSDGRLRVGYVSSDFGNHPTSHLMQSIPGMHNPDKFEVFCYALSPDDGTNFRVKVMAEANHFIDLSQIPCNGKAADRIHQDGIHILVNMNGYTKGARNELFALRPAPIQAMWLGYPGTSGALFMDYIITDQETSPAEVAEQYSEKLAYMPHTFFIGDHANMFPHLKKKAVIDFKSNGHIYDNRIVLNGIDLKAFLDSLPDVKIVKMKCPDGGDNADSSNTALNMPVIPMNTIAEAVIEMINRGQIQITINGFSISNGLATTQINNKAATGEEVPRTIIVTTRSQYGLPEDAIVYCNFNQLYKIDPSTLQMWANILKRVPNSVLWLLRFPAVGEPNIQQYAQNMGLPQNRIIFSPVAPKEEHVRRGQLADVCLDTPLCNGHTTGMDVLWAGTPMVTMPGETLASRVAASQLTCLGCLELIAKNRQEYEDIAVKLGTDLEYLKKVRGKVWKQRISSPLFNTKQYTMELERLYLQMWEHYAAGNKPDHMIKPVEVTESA
Molecule = SNKQDLMPAYQIQYG; result = 9.84
Molecule = SIHTWSVGKHFRHHW; result = 6.85
Molecule = QLAAYSPVYQIPILY; result = 6.74
Molecule = EWGHGAYMHHNHEGP; result = 4.23
Molecule = VHIDNWNHHHYAAVE; result = 6.04
Molecule = HVDVRFPSAHHVRGT; result = 2.21
Molecule = HLGHPHFYNHVYHYA; result = 3.48
Molecule = WMENFHMPSMMHIQY; result = 2.63

Single results of other studies — tested at: 10 µM
Compound = CO[C@H]1C[C@H](O[C@H]2CC[C@@]3(C)C(=CC[C@]4(O)[C@@H]3C[C@@H](OC(=O)c3ccc(O)cc3)[C@@]3(C)[C@]4(O)CC[C@@]3(O)C(C)=O)C2)O[C@H](C)[C@H]1O[C@H]1C[C@H](OC)[C@H](O[C@H]2C[C@@H](OC)[C@H](O)[C@@H](C)O2)[C@@H](C)O1; tested on = CAMK2A (Homo sapiens, UniProt Q9UQM7); assay = enzyme activity, inhibitor; endpoint = inhibition; result = -40%
Compound = O=C(Oc1ccc([N+](=O)[O-])cc1)N1CCC(C(O)(c2ccc3c(c2)OCO3)c2ccc3c(c2)OCO3)CC1; tested on = mouse MPNST tumor cells; assay = high-content immunofluorescence imaging, refers to: nuclear SOX9; setting = 12 h, mean of 2 replicates; how to read = relative to: DMSO control, higher = more nuclear SOX9; endpoint = nuclear SOX9 intensity; result = 109 % of DMSO
